Experimental data collected from several papers.
Each numbered part is a random draw from the data of one study; scales do not carry over between parts. Substitutions count along the parent as printed.

Study 1
Target: Hepatocyte nuclear factor 3-alpha (Foxa1, Mus musculus, UniProt P35582, residues 1-468, full length assumed)
Technique: EMSA with sequencing
Molecule type: double-stranded DNA, one strand shown
Matrix: in vitro
Concentration: 10 and 20 nM
Notes: whole designed probe, mean of two concentrations, ends assumed
Reference: negative control set to 0
Direction: higher = stronger binding
Construct (chain): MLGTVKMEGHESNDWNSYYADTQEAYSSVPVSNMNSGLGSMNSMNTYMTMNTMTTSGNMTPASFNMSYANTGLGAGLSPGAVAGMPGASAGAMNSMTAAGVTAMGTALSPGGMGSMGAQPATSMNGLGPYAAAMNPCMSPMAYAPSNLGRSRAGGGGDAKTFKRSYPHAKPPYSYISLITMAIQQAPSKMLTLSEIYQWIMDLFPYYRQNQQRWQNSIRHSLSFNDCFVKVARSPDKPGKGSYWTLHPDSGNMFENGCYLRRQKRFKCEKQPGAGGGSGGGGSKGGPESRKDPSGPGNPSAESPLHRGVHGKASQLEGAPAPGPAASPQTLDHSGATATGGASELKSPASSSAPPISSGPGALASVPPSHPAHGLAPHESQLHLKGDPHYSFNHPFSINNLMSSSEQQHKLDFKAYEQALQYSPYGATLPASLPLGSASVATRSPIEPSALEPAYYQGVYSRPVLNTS
Under “normalised bound fraction”, `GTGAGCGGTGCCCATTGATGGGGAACGCCTTGTTCAATTCTAGAATTTAATCTAGGATGACCCATTGTTTCTATTTGTCACATCTGTTTAGACTTCTCTGGTCTATGACAATTTCTCAGAGATTGCTTATTTTTCATGACTTCATAGTTTTGAGGAGTACTCATCAGGTATTTTGTGAAATGTCCCTCAATTTGTATTTGTCTTATGTTTTCTCATAATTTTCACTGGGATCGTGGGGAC` is recorded as 0.176 ratio.
`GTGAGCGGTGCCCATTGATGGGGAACGCTCAAAAAGCTCGGCTCAAAACTTCATTGTTTTAGGTATTTTGGGGGGAAACGAAGAGTTATCTCAGGAAGGGGGAAATATGTATAGAAAAGTAAACATGAAAACATAAGAATATTTATTCAGTAGTTCATCAAATATATATCAAAACTCTACAATGCCCCCAGATACATATTCTGTACAAGAAGAAATACGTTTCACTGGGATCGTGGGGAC`: “normalised bound fraction” 0.472 ratio.
For `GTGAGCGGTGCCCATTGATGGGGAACATCTTCCCCCTCTTCCTTGCCCCACCAGCTCACCTACGGGGGTTATTTGCAGATAGGAAAATAAATAAAGCCGGCATTCGTTAACGCAGTTCTGGCGCAAACTGCTGTTTGCTCTGGATGAATCATGGTCCTTTGGCGACGCCAGGCTCCGGGAGAGCAAAGCACCGTGTCAGGGCCATGATCCGGGCTCGCCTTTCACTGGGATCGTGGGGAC`, “normalised bound fraction” read 0.339 ratio.
`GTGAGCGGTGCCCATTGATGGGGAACATAGCATCCTCCCATCAGCTTTGATACTTACTCTCTCAGGATCATGATTTGCTATTCTTTATAAGGATCATTTTTCTCATTATCAGTCAACATGTTTACATTGGAATAGATACACTCTTCTATTTCAGTTATAGTTAGTTGAGACATAATCTCACTTTAGAAACCTTAACTACATATGTTATAAAACCTGTATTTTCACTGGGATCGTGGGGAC` — result for “normalised bound fraction”: 0.34 ratio.
`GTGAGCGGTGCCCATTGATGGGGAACTCAGAGCTGTCAGCCTACTTGGCAGGCGACCTGACACTTTAGCTGAGTCACATTTAAAAACAATTTCCTAAGAAGGGTGAGGTCACCATGAGAGCAAACACCACCAGGCCACAGCTTAATTACTAAGTTGCCAACCTTTAGCTTTCCCCAGAGCCCCCTTATAAAACATTCAGATATCTACTGCCCAACAGTGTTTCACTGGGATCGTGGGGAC`: “normalised bound fraction” 0.0268 ratio.
`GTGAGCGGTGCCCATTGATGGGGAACACTTATAAATGGACACCCAATTTTCAGCTATAACAAAGAATGAAGTACTTATACATGGTAAAATATTGGTGAAATTTGAAAGCATTATGCTAAGTACTCTAAAGGACAAATATTACTTGATTTTATTCACATGAAACATCAGGAATTGGCAAATCAACTGGGATATAAATCAGATTAGTGGTCATTAGGGCTCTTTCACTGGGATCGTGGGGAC` — result for “normalised bound fraction”: 0.0188 ratio.
Under “normalised bound fraction”, `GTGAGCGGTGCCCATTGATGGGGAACATATCATAATTAATAGGACTTAGTCTCCATTAACCCCCAAAATAACATCAAAATAGTCTCCCAAAAATATAATTGATTTTTATGAGAACTTAATGTAAACATGCAACAAGAGATCCACTCTCAACCCTTCATGTAAACACATCTGTTGCTAATCATACGTTCAGAATCCCTTGCTTAGAGTATAGGCATAGTCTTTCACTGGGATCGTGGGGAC` is recorded as 0.354 ratio.
For `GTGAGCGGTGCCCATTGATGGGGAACCACACTCACCAAGTGCTTTTTCATCATGGCATCAAGGATCATGGAAACGTTACACCAGCCACTCTTTTCTGGAGCAATGTTGACCCATGTCTGGGCAAATAAGAAAGGTTTCGTATGAGTATGTCTGTTCAAATAAATCCTAACTTTCTCACTGGGAAGGAATGACTAGTTCCCACGACTCACAGGACACCACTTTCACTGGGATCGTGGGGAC`, “normalised bound fraction” read 0.236 ratio.

Study 2
Target: RNA binding protein fox-1 homolog 2, RRM domain, GST-SBP tag (RBFOX2, Homo sapiens, UniProt O43251-10, residues 100-194)
Technique: RNA Bind-n-Seq
Molecule type: RNA
Matrix: in vitro
Concentration: 365 nM
Notes: natural RNA segment, single round, ends assumed
Reference: no-protein control
Direction: higher = stronger binding
Target sequence (chain): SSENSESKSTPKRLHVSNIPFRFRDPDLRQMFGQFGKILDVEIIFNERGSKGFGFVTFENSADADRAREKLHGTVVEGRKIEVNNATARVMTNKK
`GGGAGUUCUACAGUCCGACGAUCUACCAGUUCGGGUUAAUAAAAUGAUGCCACUUGUGUCUUUUGUUCUUAAGCAGGGAAGAUAAGAGACCCUGCUCUCCACAGGUUGGUACAAAGGGGAACCUUGCUUCUGUUGGAAUUCUCGGGUGCCAA` — result for “RBNS enrichment (R)”: 0.302.
`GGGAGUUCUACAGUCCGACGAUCUCUGAAGUAUAAGGAGAAAUGUAUGACCAGAUAGCAAUCCUGCUUUUAGAUAGUAUGCUCUUGAUUGGAACAAAUUUUCAUUUUUUUAAAAAUCUGCUAAACAUUUGCAAUGGAAUUCUCGGGUGCCAA` — result for “RBNS enrichment (R)”: 1.71.
`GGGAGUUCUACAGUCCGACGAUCAGCGUCAGGAUGAGGAAAUGACAGGAGGAAGACGUGGGUUUGGGUUAGUGGCUGCUGGCGUUUUGGCCCUUGGUGUUUCUGGAGCCUCCAGGGAUCUAGGGGAGCCUGGGUGGAAUUCUCGGGUGCCAA`: “RBNS enrichment (R)” 0.745.
`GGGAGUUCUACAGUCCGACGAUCGGACAACACGAAGAUUUCCUUUGCAUUUUCAGUAACCUUUGGAGCACACUUCUCUUAUUUCUCCUAGAGCCCCGUGCCCCUCUGAAGUGUUACCACAAUCUAGCUUACCUUGGAAUUCUCGGGUGCCAA`: “RBNS enrichment (R)” 0.33.
`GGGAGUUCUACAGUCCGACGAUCAAUCAUGUGCCAUGUGUAGGCUGUUGUGUGUACACUGUGUCUAAGAGAAGAAGAAAAGAAAAAAAAAAGAAAGAAACCCACAUGCCAUUUUUUUUUUCUGAUUCAAAUUCUGGAAUUCUCGGGUGCCAA`: “RBNS enrichment (R)” 1.45.
`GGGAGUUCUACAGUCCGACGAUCGUGGAAGGAGGGUAUGAUGCAGGUGCCAGAUUUGGAGCUGGGGCUACUGCUGGCAACAUUCCUGCUCCACCUCCUGGAUGCCCUCCCAAUGCUGCUCAGCUUGCAGUCAUUGGAAUUCUCGGGUGCCAA` — result for “RBNS enrichment (R)”: 0.385.
`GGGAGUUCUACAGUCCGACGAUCAUCAGUGUUAAUUCUAAAUCCUUGAUCCUCUGCAAUGUGCUUGAAAACACAAACCUUUUGGGUUAAAAGCUUUAACAUCUAUUAGGAAGAAUUUGUCCUGUGGGUUUGGAUGGAAUUCUCGGGUGCCAA` — result for “RBNS enrichment (R)”: 0.323.
Under “RBNS enrichment (R)”, `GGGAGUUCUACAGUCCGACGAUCUUCCCUCUUCAGGCCCUGGUGGCGGCGGCGUGUACACCUUCCCGAGGAAACUCCGCUGCCGACCCUGCCUGAGCGCGGGAGCCUGAGGACCGGGUGGAGGCGGUGGGGACUGGAAUUCUCGGGUGCCAA` is recorded as 0.381.

Study 3
Target: XBP1, bZIP domain (human)
Technique: DHFR protein complementation
Matrix: yeast
Notes: single substitutions, most at no-binding floor
Reference: wild-type JUN-FOS pair
Direction: higher = stronger binding
Starting sequence: JUN, bZIP domain (human); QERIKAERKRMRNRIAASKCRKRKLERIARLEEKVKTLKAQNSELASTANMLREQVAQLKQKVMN; partner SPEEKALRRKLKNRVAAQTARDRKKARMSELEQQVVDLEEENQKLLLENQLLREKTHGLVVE
`L52W` gave a binding fitness of -1.48 natural log.
`A40S` gave a binding fitness of -0.976 natural log.
`V35R` has a binding fitness of -1.35 natural log.
For `T37A`, the binding fitness was -0.522 natural log.
For `A29P`, the binding fitness was -1.44 natural log.
`K36N` has a binding fitness of -0.943 natural log.
The binding fitness of `R53D` is reported as -1.6 natural log.
`L52A` has a binding fitness of -1.49 natural log.

Further values, each from its own experiment
Starting sequence: viral docking peptide; YKVKRRLVFGADD; partner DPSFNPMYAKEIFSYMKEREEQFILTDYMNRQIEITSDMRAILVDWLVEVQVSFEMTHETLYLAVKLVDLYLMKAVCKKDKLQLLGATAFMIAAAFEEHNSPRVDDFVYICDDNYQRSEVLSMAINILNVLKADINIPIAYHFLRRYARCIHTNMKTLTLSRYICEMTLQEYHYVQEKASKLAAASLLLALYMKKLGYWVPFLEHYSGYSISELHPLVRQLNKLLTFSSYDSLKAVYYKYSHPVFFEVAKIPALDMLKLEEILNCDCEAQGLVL
For `L7C`, “normalised enrichment score” read -0.513 (CCNB3, cyclin fold, Cln2 fusion (human); yeast growth competition, sequencing; yeast; strong parent motif; reference: not given, higher = stronger binding).
